Measurements of several laboratories.
Parts stem from different laboratories: compare values within a part only. Changes are numbered by the printed parent chain.

Block 1 — method: Spec-seq; form: double-stranded DNA, one strand shown; sample: in vitro; tested at: not given; setting: whole probe, mean of replicates; baseline: not given; reading: lower = stronger binding; endpoint: relative binding energy; shared flanks, not repeated: GAGTCGTCTCGTCAGCAC … CCGTAGAGCACTCAGGTC
Target: POU domain, class 5, transcription factor 1, POU domain (Pou5f1, Mus musculus, UniProt P20263, residues 131-289)
Chain of UniProt P20263 (131-289, looked up): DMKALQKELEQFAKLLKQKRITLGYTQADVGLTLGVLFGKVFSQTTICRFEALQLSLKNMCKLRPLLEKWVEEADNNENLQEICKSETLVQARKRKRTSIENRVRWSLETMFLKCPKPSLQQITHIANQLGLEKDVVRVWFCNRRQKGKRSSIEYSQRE
Sequence = AGAATAAT; result = -1.04 ln ratio
Sequence = ATCGAAAT; result = 0.436 ln ratio
Sequence = GACTTAAT; result = 0.391 ln ratio
Sequence = ATGCGGGG; result = 0.442 ln ratio
Sequence = ATACGCAT; result = -0.281 ln ratio

Block 2 — method: RNA Bind-n-Seq; form: RNA; sample: in vitro; tested at: 1 µM; setting: whole 134-nt RNA, ends assumed; added: 150 mM KCl; baseline: input library; reading: higher = stronger binding; endpoint: log2 enrichment
Target: Ras GTPase-activating protein-binding protein 1, RRM domain (G3BP1, Homo sapiens, UniProt Q13283)
Chain of UniProt Q13283 (whole entry, looked up): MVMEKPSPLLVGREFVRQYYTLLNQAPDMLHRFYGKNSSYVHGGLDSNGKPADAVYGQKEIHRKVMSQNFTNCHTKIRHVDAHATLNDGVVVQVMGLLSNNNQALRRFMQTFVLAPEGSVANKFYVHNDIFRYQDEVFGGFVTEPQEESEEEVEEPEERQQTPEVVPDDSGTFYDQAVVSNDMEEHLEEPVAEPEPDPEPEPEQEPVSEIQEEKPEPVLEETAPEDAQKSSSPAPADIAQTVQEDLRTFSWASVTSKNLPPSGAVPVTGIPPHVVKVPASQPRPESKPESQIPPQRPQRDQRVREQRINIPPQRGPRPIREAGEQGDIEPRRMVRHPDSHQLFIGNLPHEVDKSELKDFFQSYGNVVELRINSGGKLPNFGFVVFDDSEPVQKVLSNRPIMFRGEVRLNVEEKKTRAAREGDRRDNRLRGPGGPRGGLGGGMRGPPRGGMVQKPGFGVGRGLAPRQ
Shared flanks, not repeated: GGGAGUUCUACAGUCCGACGAUC … UGGAAUUCUCGGGUGUCAAGG
Sequence = UUACAUUACCUGGUGAAAUAGACAUUGACAGUAUCUCCUAUGAAGAGCUUUCACCACCUGAUGAAGAGCCUGCCAAGAAUAAAAAGGAAA; result = -0.00513
Sequence = UCCUCAAGUCCUGUGCUACACAUCGUAUGUACCGAAUCGGUUUGGUGGUGGAAAGUAUUAUGUUACGCCGUUCGGAUCUGCACUUCCAGC; result = -0.185
Sequence = UUUCGGCUACCCCCAGUUCUUCUUUGCCAAAGCGUACACGUGAAGAGGAAGAGGAUAGCACCAUAGAAGCAUCAGACCAAGUCUCUGAUG; result = -0.176
Sequence = UGGGAGGUGGAUUUUGUUUAUUUUUUUAGCCCAUUUCCAGGGGUGGGAAUUUUUUUUUAAUAUGUGUCAUGAAUAAAGUUGUUUUUGAAA; result = 1.49
Sequence = UGGGAGGUGGAUUUUGUUUAUUUUUUUAGCUCAUUUCCAGGGGUGGGAAUUUUUUUUUAAUAUGUGUCAUGAAUAAAGUUGUUUUUGACA; result = 1.81
Sequence = AGUCCUGUGCUACACAUCGUAUGUACCGAAUCGGGUGGGAAAAAAAGGGUUUUUGGGAAAGUAUUAUGUUACGCCGUUCGGAUCUGCACU; result = 0.503
Sequence = UCCUGUGCUACACAUCGUAUGUACCGAAUCGGGGUUUUUGGGUUUUUGGGGUUUUUGGGGAAAGUAUUAUGUUACGCCGUUCGGAUCUGC; result = 0.0992
Sequence = UCCUGUGCUACACAUCGUAUGUACCGAAUCGGAAAAAAGGGGAAAAAAGGGGAAAAAAGGAAAGUAUUAUGUUACGCCGUUCGGAUCUGC; result = 0.00627
Sequence = GCAGGAAGUAAAAACAAAUGGAAAUGCUUCGGAUAGUGGCAGGGGUGGGGGUUGCUAAGGAAAAGGUGGGAUGGGAGUGGGUAAAGAGUU; result = 1.06

Block 3 — target: CCND3, cyclin fold, Cln2 fusion (human); method: yeast growth competition, sequencing; sample: yeast; setting: weak parent motif; baseline: not given; reading: higher = stronger binding; endpoint: normalised enrichment score
Parent: PKN2 docking peptide (human); VSAVRKLDFSDTM; partner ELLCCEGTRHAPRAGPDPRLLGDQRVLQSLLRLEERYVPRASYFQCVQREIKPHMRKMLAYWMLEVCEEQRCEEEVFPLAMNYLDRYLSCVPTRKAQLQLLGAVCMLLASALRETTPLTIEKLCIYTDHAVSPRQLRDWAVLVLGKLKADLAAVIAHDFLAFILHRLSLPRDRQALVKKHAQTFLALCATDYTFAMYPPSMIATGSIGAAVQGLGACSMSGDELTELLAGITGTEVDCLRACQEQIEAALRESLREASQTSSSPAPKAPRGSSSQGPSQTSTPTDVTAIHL
Variant = VSAVRKLDVSDTM [F9V]; result = 0.0907
Variant = VSAVRKLDASDTM [F9A]; result = -0.175
Variant = VPAVRKLDFSDTM [S2P]; result = 0.389
Variant = VSYVRKLDFSDTM [A3Y]; result = -0.0991

Other studies, line by line
Molecule = PhoQ, residues 284 288 289 292 302 303 ALSMDL; target = PhoP, residues 12 14 15 18 19 NYFTV (Escherichia coli, UniProt P23836); assay = Sort-seq, measured: YFP reporter; system = E. coli; setting = PhoQ-PhoP variant library, added: 10 µM Mg2+; scale = baseline: high Mg2+ state, higher = stronger signaling; endpoint = fold induction; result = 22.8

A few entries again (block 1):
Sequence = AGAATAAT; result = -1.04 ln ratio
Sequence = ATCGAAAT; result = 0.436 ln ratio
